Assay results from different studies.
Each line is one published result; not all experiments were run side by side. Values joined by “and” are separate records of one study, mostly repeats; a detail may differ. ± gives the spread as reported.
Chain of UniProt P22290 (whole entry, looked up): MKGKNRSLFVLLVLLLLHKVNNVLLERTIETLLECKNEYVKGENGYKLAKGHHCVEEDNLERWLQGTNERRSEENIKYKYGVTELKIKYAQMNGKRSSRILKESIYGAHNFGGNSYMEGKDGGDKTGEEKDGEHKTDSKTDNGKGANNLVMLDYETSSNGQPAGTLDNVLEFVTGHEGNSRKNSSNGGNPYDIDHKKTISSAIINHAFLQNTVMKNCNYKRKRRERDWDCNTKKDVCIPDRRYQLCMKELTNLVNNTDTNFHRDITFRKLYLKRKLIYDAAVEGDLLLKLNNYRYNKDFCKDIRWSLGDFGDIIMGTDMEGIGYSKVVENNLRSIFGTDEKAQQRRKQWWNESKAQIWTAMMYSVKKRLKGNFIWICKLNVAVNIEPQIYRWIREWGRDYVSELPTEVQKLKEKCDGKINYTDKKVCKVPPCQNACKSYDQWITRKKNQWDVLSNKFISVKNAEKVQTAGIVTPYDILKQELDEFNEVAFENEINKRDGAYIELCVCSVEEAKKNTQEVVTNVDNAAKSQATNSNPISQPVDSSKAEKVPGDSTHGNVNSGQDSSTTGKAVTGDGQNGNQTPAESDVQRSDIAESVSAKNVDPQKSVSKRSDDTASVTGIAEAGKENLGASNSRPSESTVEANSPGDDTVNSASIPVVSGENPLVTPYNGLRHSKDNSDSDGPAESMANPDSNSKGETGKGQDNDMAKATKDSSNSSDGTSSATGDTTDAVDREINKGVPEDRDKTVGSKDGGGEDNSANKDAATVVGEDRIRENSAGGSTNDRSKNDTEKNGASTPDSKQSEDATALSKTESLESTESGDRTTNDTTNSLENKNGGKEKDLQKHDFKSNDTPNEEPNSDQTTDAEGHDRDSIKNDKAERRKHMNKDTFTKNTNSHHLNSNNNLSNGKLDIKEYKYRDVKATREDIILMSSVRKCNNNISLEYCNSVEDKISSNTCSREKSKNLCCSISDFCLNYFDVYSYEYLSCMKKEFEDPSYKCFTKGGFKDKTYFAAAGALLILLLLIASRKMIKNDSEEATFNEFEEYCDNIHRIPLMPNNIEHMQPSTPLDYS

Substance	target or system	assay	system	conditions	how to read	measurement	result
COc1ncc(-c2cn([C@@H]3O[C@](F)(CO)[C@@H](O)[C@H]3O)cn2)cn1	Zaire ebolavirus	viral replication, reporter virus	Huh-7	72 h	–	IC50	44100 nM
HADQLTPTW	–	–	peptide, tetramer-reactive CD8+ T cells, COVID-19 convalescent HLA-B*07:02 subjects	–	–	number of clonotypes	3
O=c1ccn([C@@H]2O[C@](F)(CO)[C@@H](O)[C@H]2O)c(=O)[nH]1	Mammarenavirus lassaense	viral replication	HeLa, clade II Nigeria-322	–	–	EC50	2140 nM
COc1cc2ncnc(Nc3cccc(Cl)c3)c2cc1OC	Monkeypox virus	viral infection	replication-deficient	0.015 µM	relative to: untreated	infection	98.5% and 102% and 104%
VATSRTLSY	–	–	peptide, tetramer-reactive CD8+ T cells, COVID-19 convalescent HLA-A*02:01 subjects	–	–	number of clonotypes	0
O=C(NCC(F)(F)F)c1ccc(CN(Cc2cc(Cl)cc3c2OCOC3)C2CC2)cc1	MERS-CoV spike VSV pseudovirus	pseudovirus entry	–	10 µM	–	inhibition	47%
COc1nc(N)ncc1-c1cn([C@@H]2O[C@](F)(COC(=O)C(C)C)[C@@H](OC(=O)C(C)C)[C@H]2OC(=O)C(C)C)cn1	Zaire ebolavirus	viral replication, reporter virus	Huh-7	72 h	–	IC50	> 100000 nM
PVDR (Plasmodium vivax, UniProt P22290)	ACKR1 Fc fusion (monkey)	BLI	–	–	–	Kd	18.7 ± 1.09 nM

Excerpt of the above:
Substance	target or system	assay	system	conditions	how to read	measurement	result
O=C(NCC(F)(F)F)c1ccc(CN(Cc2cc(Cl)cc3c2OCOC3)C2CC2)cc1	MERS-CoV spike VSV pseudovirus	pseudovirus entry	–	10 µM	–	inhibition	47%
